Measured values of several laboratories.
Parts stem from different laboratories: compare values within a part only.

Series 1
Target: Histone acetyltransferase KAT6A, both winged helices, GST fusion (KAT6A, Homo sapiens, UniProt Q92794, residues 1-181)
Method: protein binding microarray
Form: double-stranded DNA, one strand shown
Sample: in vitro
Concentration: not given
Setting: 8-mer, flanks averaged, mean of 2 arrays, mostly near background
Baseline: not given
Direction: higher = stronger binding
Construct (chain): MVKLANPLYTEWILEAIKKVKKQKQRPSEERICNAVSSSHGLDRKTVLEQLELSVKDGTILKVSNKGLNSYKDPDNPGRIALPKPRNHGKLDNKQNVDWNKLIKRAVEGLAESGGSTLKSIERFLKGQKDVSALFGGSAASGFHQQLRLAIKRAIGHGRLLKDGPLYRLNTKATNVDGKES
Sequence | E-score
AAAAGTAG | -0.198
AAGCGTTA | -0.00413
CCTCAAAG | -0.183
TCTCGCAA | 0.0209
AGACCTAA | -0.138
ACGGGTTG | 0.251
CCGCTGCA | 0.168
TGTATACA | -0.0023
GCAACTGC | 0.0612
ATCCGTGA | 0.211
CAATGCCG | 0.307
ACAAGTGG | -0.153
CAGAGTTA | -0.02
AGAAGACC | -0.0923
ATCGTCCC | 0.00646
AGGTCCGG | -0.0136
TATCGACA | 0.0394
CGCGCTAC | 0.373
TGCCTACA | -0.115
CCCCATCG | 0.0338
AGTGTATA | -0.0343
ATTCATGG | -0.0425
ACTGGACC | 0.0445
CATGGATA | -0.0756
AACAGAGG | -0.216

Series 2
Target: Centromere-binding protein 1, full length, His-tagged (CBF1, Saccharomyces cerevisiae, UniProt P17106, residues 1-351)
Sequence of UniProt P17106 (whole entry, looked up): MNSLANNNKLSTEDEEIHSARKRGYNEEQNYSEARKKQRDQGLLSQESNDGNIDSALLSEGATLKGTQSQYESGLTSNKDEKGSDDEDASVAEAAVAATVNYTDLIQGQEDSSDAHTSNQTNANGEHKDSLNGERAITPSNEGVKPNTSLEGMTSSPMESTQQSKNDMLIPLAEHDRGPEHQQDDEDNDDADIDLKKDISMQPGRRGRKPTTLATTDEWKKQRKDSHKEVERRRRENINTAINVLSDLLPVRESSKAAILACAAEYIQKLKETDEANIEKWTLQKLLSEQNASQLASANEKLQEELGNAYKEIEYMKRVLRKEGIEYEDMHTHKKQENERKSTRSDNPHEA
Method: competition protein-binding microarray
Form: double-stranded DNA, one strand shown
Sample: in vitro
Concentration: 2 µM
Setting: whole 60-bp probe, lowest competitor level
With: Pho4 competitor, 0.05 µM
Direction: higher = stronger binding
All sequences stand within: … GTCTTGATTCGCTTGACGCTGCTG
Sequence | fluorescence intensity [a.u.]
CTTTCCCGATCTTGGTGCGTGGGTGTAGCACATTTG | 86.5
GAAGATGACTGCTTCCTCGTGTTGATCCATTATTTT | 84.4
ATTTTTCAATATTTTCACATGTGTGTCAATTTCTGC | 238
ACCGCGCGATTATTTAGTGTGACGGGAGCAAAGTAG | 94.7
CTTCTGTAAATTTGTAGGGTGGGTGGACGCGCCCCG | 82.7
CCGCTATATACTTTTCACGTGGGACCTGCAAAATAA | 839
CTAACGAAGGTTTGCTTCGTGGGTGACAAGCCAAGT | 71
TGGATTTTTCCAAAACACGTGTCGGAAACTTATTTT | 2270
GAGTAAAGATGTTAGCACGTGATGGGCTGCAGAGGT | 3810
TTGCTGTTTCTAAGAAGCGTGGGACAACGCAATGAA | 68.5
CACCTCTCGACCCGTCACGTCAAGGTTTGCTGCCTC | 74.3
GGGACAACGGCTTGCTAGGTGCATTTACTTCATTCA | 60.5
TCAACCTGGGTTCGTCACGCAAGACTTGAAGATGAT | 86.4
ACACCTGACTCGGACCATGTGGCTAAGTTTGTTTTG | 231
AAAGCGGTAATTTGAAACGTGGGTGCAGATATCTAT | 109
ACACCTGGGTTTCCGCACGTGTTTCACCATCCCAAA | 1190
TTGCTTTGCAGCGACCACGTGGAACACTTGTCTAGT | 1180
TGTATCCTTTGTAGGCTCGTGCTGTATCAACCTACT | 87.1
TGCGCAACAACTTTTCACGTGTAATTATGTCTAGAA | 875

Series 3
Target: Hepatocyte nuclear factor 3-alpha (Foxa1, Mus musculus, UniProt P35582, residues 1-468, full length assumed)
Sequence of UniProt P35582 (whole entry, looked up): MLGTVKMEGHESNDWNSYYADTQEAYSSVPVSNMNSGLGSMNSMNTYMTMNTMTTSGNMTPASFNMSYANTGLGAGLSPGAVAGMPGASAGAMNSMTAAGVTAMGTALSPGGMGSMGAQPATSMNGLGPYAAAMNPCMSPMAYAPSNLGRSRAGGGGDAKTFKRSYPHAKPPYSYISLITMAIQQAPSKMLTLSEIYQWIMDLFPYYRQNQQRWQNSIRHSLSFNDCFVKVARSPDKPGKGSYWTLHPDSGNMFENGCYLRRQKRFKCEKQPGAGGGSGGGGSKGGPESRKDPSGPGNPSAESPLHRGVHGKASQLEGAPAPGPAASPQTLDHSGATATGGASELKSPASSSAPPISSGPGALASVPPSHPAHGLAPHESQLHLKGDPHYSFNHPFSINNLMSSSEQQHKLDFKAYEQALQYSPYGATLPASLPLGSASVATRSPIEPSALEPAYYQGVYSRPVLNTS
Method: EMSA with sequencing
Form: double-stranded DNA, one strand shown
Sample: in vitro
Concentration: 10 and 20 nM
Setting: whole designed probe, mean of two concentrations, ends assumed
Baseline: negative control set to 0
Direction: higher = stronger binding
All sequences stand within: GTGAGCGGTGCCCATTGATGGGGAAC … TTTCACTGGGATCGTGGGGAC
Sequence | normalised bound fraction [ratio]
TTCTACTCCAGTTCCAGAAAAGTTATGGAAGTCTCAGTTCCTGTGTGTGCCATCACTTTAGCCTCCAGGAAGCTATCTCTTAGTCTCTCCTACTGTAATCTTGTCTCCCTGAGTCACCACAGCATCTGTTGTTTCTAGGTGAAGGACTAATACAAATAACAGGGAGGCGCCTGGCATCTGGCCACCTGAACAC | 0.203
TCTGTAGCCTTTGCAAATAACCTTTTTGAACAAAAACGGCAATGGCTCATTCCAAACCCGATCAAAGAGGTATGCATGACTCACAGCCACTAAATAATCTTTGATGCCTGATGGCAGTAATATGGCTATTTATATTCAGAGCCTGATTTAACCAGTGGCATTCCTGTAATAAGATAATAAGCATGAGCTGTTT | 0.0736
ATCTTCCCCCTCTTCCTTGCCCCACCAGCTCACCTTCCCGGGTTATTTGCAGATAGGAAAATAAATAACGCCCTGATAGTATCCCATGCTTCTGGCGCAAACTGCTGTTTGCTCTGGATGAATCATGGTCCTTTGGCGACGCCAGGCTCCGGGAGAGCAAAGCACCGTGTCAGGGCCATGATCCGGGGTGGCC | 0.311
GCTTAAACCAATAAAACATTTATCTCACAGTTTCTGTGGGTCAGGAATCCAGGAGTGGCTTTGCTGGGTGGTTCTGCCTCAGGGTATCTGCCCAGATTACAGTCATGCTGTTGGCTGGGCTGCAGAGGCTGGAAGCCTCTTTGGGGCCAGATGATTTGTTTCTGAGCTTGTTCATGTGGTTGTGGTCAGAAGG | 0.121
GCATACCAGTTGATGCCCCAGCCCTCCCTCCCAGGTAGATTTTGAAATCCTCTAGATGTGGAAAAATCTAAACATATTGTGCTATTTACAGAGTAAACAAGGGGAGTTGAGGATTTCATAAGCATGTTCTCCACTTTTTTTTCCCTTTTCCTCTTCCATCTTGGGAGTAGAAGAAAACAGATTCGGTTTACCT | 0.249
TTCCTATCAGGCGAAGGCCGCCTTTCCTGGCCTCCCCCACAGGCCCGCCAGCGATTCGTCCTTACAAGGCTAGCCTCCACGGGCTGCCCTCTGTGTAATTTAAGCCACAGACTTCCGCCCACAGGTCGCCGCAGGTCCCGCCCGCAGCGCCGGGCCGCGGGGGAGGCGGGAACTGGTGCTACGGCCGCTACGC | -0.0397
ATCTTCCCCCTCTTCCTTGCCCCACCAGCTCACCTTCCCGGGTTATTTGCAGATAGGAAAATAAATAAAGCCGGCATTCGTTAACGCAGTTCACGCGCATACTGCTGTTTGCTCTGGATGAATCATGGTCCTTTGGCGAGGCGTGGCTCCGGGAGAGCAAAGCACCGTGTCAGGGCCATGATCCGGGCTCGCC | 0.345
CTGGCCTATCTCCCACCCCTAATGTCCCACACCAGTTCCTGATCTCCTGCCCCACCCCTCCTGCACCCTGCCCCTTCTCAGGTGACTCACTGTGTCATCTTCCTTGAAGGAATGATTTCTGGTTCATGGCCCCAGAGCTGGAGCTTTGGAAGGATAATGGGAAAAGCAGCCAGGGTCCCTGCCCTCAAGAGAC | -0.0835

Series 4
Target: Interferon regulatory factor 7, full length, phosphomimetic (IRF7, Homo sapiens, UniProt Q92985, residues 1-503, S471D/S472D/S475D/S476D/S477D/S483D/S484D/S487D)
Method: protein-binding microarray
Form: double-stranded DNA, one strand shown
Sample: in vitro
Concentration: 2200 nM top
Setting: 60-bp whole probe
With: salmon DNA 0.4 mg/ml
Baseline: random background probes
Direction: higher = stronger binding
All sequences stand within: GCCTAGCAC … GTCTTGATTCGCTTGACGCTGCTG
Residues (chain): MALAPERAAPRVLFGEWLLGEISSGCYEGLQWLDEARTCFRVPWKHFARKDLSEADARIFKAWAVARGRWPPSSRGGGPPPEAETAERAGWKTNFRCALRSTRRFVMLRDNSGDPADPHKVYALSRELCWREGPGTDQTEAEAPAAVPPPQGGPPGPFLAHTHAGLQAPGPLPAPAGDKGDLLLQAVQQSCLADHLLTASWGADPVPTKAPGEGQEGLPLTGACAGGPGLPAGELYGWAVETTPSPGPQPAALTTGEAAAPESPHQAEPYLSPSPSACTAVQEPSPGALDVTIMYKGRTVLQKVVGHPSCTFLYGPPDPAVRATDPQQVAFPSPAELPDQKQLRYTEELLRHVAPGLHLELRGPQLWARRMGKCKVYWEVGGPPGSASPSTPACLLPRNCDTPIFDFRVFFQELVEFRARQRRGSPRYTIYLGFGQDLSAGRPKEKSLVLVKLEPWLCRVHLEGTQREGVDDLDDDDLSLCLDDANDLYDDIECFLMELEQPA
Sequence | fitted relative affinity
ATAGGTTTCGGTTTCGGTTAGTGCTAG | 18 z-score
GGCGGTATCGACTTTCGGGACGTGCTA | 2.38 z-score
GACGGACTGGGTATCGGGATGTGCTAG | -0.565 z-score
GTCGAACTGGGGTATCGAGACGTGCTA | 0.234 z-score
TTAGGACTGTGTATCGGTTAGTGCTAG | 0.352 z-score
TTAGGTCTCGGTTTCGGTTCGTGCTAG | 12 z-score
TCATCATTCCTGATCTCACTGTGCTAG | 1.75 z-score
GACGGAATGGACTATCGGGACGTGCTA | -0.22 z-score
TTAGGTTTGCTTTTCCTTTAGTGCTAG | 2.56 z-score
GACGGTTCCGCTTTCGGGACGTGCTAG | 5.61 z-score
TCACCTTTTAAGTTCTCACTGTGCTAG | 1.48 z-score
TACTGTCTGTTTCCTCTTTCTGTGCTA | 3.15 z-score
GCGCTTCTCGAGTGCCGGCTGGTGCTA | 1.64 z-score
TGAGGTATCCTACTGCTTTAGTGCTAG | 0.282 z-score
TTAGGTATCGACTTTCGGTTTGTGCTA | 13.1 z-score
GACGGTCTCCTTATCTTGACGTGCTAG | 0.919 z-score
TCAACTCTTTATTTAAGACTGTGCTAG | 0.146 z-score
TTAGTTTTCAGTATCGATTAGTGCTAG | 2.73 z-score
GTAGGTTTCGACTATCGGTTAGTGCTA | 3.24 z-score
TTGGATATCAGTTTCGATTAGTGCTAG | 5.98 z-score
TTAGGTCTTCTTATCCTTTAGTGCTAG | 0.797 z-score
TTAGATTTCAGTATCGATAAGTGCTAG | 0.409 z-score

Series 5
Target: RING finger protein unkempt homolog, zinc fingers 1-6, GST-SBP tag (UNK, Homo sapiens, UniProt Q9C0B0, residues 30-357)
Sequence of UniProt Q9C0B0 (30-357, looked up): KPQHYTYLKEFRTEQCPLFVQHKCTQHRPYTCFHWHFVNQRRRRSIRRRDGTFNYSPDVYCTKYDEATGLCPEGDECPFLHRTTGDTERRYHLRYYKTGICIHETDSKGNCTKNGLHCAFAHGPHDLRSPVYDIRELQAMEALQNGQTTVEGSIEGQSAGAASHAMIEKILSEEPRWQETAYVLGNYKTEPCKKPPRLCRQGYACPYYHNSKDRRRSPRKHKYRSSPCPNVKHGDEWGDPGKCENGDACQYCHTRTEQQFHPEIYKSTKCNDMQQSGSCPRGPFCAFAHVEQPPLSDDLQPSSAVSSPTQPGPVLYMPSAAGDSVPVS
Method: RNA Bind-n-Seq
Form: RNA
Sample: in vitro
Concentration: not given
Setting: RNA with constant flanks, human and mouse sites, ends assumed
Baseline: input RNA pool
Direction: higher = stronger binding
All sequences stand within: GGGAGUUCUACAGUCCGACGAUC … CAACAGAGGAUUGAGCAUCA
Sequence | bound/input enrichment [ratio]
UGUUUUUUCUGCAUCUGGAAGGGUGUUCGAUCCACAGGCAAGGUUGUCUACUUCACCGCUACUUUCCCGUUUGCCAUGCUUCUGGUGCUGCUGGUCCGUGGACUGACCCUGCCAGGUGCU | 0.199
GUUAUAAAAGCCUUCCGUCACUCGUACCUUUACGAAUUGCGGCAUUAAAUGCACUUGCUGCCUGCAAUUACCUUCCUCAGUCCAGGGAGAAAAUCAUCGCUGCACUCUUCAAAGCCCUGA | 0.245
UGAAGAUGAUGUAAAUAAGCAAAGUUCAGUUAGAAAGAACUCACAAAAACAAAUAAAAAAUAGCAGUCUCCUUUCUUUUGACAGUGAAGAUGAAAAUGAGUAAAUAUGAAUAUUGUGGAC | 1.28
UCUGGAAGUGGAAUCCUUACUGCAUGUUUUGCACGUAUGGUUGGAUGUACUGGAAAAGUCAUAGGAAUUGAUCACAUUAAAGAGCUAGUAGAUGACUCAGUAAAUAAUGUCAGGAAGGAC | 2.44
ACAAGAGUGGCUGUCUCCUCACCCAUGAGUCAGCAUCAGUCAUACAUACAGUACUUGCAUGCUUAUCCUUACCCACAGAUGUACGACCCCAGCCAUCCUGCAUACCGGGCUGUUUCUCCC | 0.395
UUUGGCUCCUGUUACUUGCCUGCGUGGAGAGUUAAGCUGGAGCUCUGCUUUGAACGAUAAAUAAAAGCUUAGCCUCGACGAGACAUAAAUGGAUCUAAAGACAGCGGUGUUCAACGCAGC | 0.104
AAGAAAGAAAAGGAACAAGCAAAGCAGCUACGAAAGAGAAAUUGGGAAGCCUUAAAAAACAUACUUGACAAUAUGGCUAACGUUACAUACUCUACCACUUGGUCUGAAGCCCAGCAGUAU | 0.308
GGCUGCAGUGGGCAUGGCCGUUGUGUCAACGGGCAGUGCGUGUGUGACGAGGGCUAUACCGGAGAAGACUGUAGCCAGCGGCGAUGCCCCAAUGACUGUCACAACCGGGGUCUCUGCGUA | 0.127
CGAAAUGUCUCCUGUGUCACAUAUUCUGGAGGUUACAUCUUUCUGUGACAACAGGGAGUUUCCUUAUGCAUUCUUCAUUUGCUGCUGUUUAAGUUGACAACUUCCUUCCCAAUAAAAAUU | 0.287
CGCUAUCUGCCUUGGCUUUAUCAUCCCCCCUCUGCAAUGCAGCAAGGACCUAAAGAAUUCAUUGAGUGUGUCUCCCAUAUCCGACUGUUGUCCUGGCUGCUGCUGGGUUCCCUCACUCAC | 0.536
AACGGUGCCCCUGCAUGUGCUCAGAAGCUCUAUGCAGAACUGUGCCAAGGCAUCGUGGACAUAGCCAUUUCCAGUGUCUUCCCACCCCCAGAUGUGGAGCAACCUCAGACCCAGCCAGCU | 0.253

For quick reference, copied from above (series 1):
Sequence | E-score
AAGCGTTA | -0.00413
CCTCAAAG | -0.183
TCTCGCAA | 0.0209
AGACCTAA | -0.138
ACGGGTTG | 0.251
CCGCTGCA | 0.168
TGTATACA | -0.0023
GCAACTGC | 0.0612
